Experimental data from different studies.
Protocols differ between the studies behind these lines. ± marks the error that the study gave.
Organism: HIV-1

Cc1[nH]c2ccccc2c1CC(=O)N[C@@H](Cc1ccccc1)C(=O)N(C)c1ccccc1  EC50 (infectivity of progeny virus; HEK293FT, NL4-3): 2100 ± 600 nM
CCCCCCCCCCCCCCCCCC(=O)Oc1c2n(cc(C(=O)NCc3c(F)cc(F)cc3F)c1=O)CC1OC3CCC(C3)N1C2=O (stereo not shown)  IC50 (viral replication, reverse transcriptase activity; human monocyte-derived macrophages, ADA): 7.11 nM
O=C(C1=C(O)C(=O)N(CCCN2CCOCC2)C1c1cccnc1)c1ccc(Br)cc1 (stereo not shown)  EC50 (cytopathicity, XTT; CEM-SS, RF; 6 days): > 30000 nM
CNCc1ccc2c(c1)C[C@H](CNC(=N)N)[C@H]2NC(=O)C(=O)Nc1ccc(Cl)c(F)c1  IC80 (pseudovirus infection, Env pseudovirus neutralisation; TZM-bl, clade B T/F isolate d15_410_787): 17400 nM
CCc1nc2sc(C(=O)Nc3cccc(C(F)(F)F)c3)c(N)c2cc1C  EC50 (cytopathicity, XTT; CEM-SS, RF; 6 days): 123000 nM
O=C(CCCCCCCCCCCCCCCCC(=O)Oc1c2n(cc(C(=O)NCc3c(F)cc(F)cc3F)c1=O)CC1OC3CCC(C3)N1C2=O)Oc1c2n(cc(C(=O)NCc3c(F)cc(F)cc3F)c1=O)CC1OC3CCC(C3)N1C2=O (stereo not shown)  IC50 (viral replication, reverse transcriptase activity; human monocyte-derived macrophages, ADA): 4.33 nM
Cc1c(CC(=O)N[C@@H](Cc2ccccc2)C(=O)N(C)c2ccccc2)c2ccccc2n1C(C)C  EC50 (infectivity of progeny virus; HEK293FT, NL4-3): 1200 ± 200 nM
CCCOC(=O)N1c2cc(CNC)ccc2[C@H](NC(=O)C(=O)Nc2ccc(Cl)c(F)c2)[C@H]1CNC(=N)N  IC80 (viral infection; TZM-bl, CRF02_AG 235-47 Env pseudovirus): 2270 nM
CCn1c(C)c(CC(=O)N[C@@H](Cc2ccccc2)C(=O)N(C)c2cccc(Cl)c2)c2ccccc21  EC50 (infectivity of progeny virus; HEK293FT, NL4-3): 780 ± 100 nM
CCN(Cc1cccc(S(=O)(=O)O)c1)c1ccc(C(=C2C=CC(=[N+](CC)Cc3cccc(S(=O)(=O)[O-])c3)C=C2)c2ccccc2)cc1  IC50 (viral replication): 15900 nM
